{"data": "Measurements collected from several papers", "note": "A part holds a random share of what one study measured."}
{"data": "Set 1", "target": "RNA binding protein fox-1 homolog 2, RRM domain, GST-SBP tag (RBFOX2, Homo sapiens, UniProt O43251-10, residues 100-194)", "method": "RNA Bind-n-Seq", "molecule type": "RNA", "medium": "in vitro", "tested at": "365 nM", "setting": "natural RNA segment, single round, ends assumed", "relative to": "no-protein control", "reading": "higher = stronger binding", "all sequences stand within": "GGGAGUUCUACAGUCCGACGAUC … UGGAAUUCUCGGGUGCCAA", "Residues (chain)": "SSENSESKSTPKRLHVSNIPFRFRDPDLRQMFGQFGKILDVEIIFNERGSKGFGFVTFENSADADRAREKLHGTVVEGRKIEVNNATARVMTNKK"}
{"Sequence": "UGGUACAUGGUAGGUGUUGUGAUGGAAAUGGAAAGCAUUGGUUAAAUGGAAUAGAGGUCUUGAUCUUUGGAAUGCAUGCCGGUAAUGUAUUUUACAGUACAUGUUAAUAA", "RBNS enrichment (R)": 5.4}
{"Sequence": "CGGCAGGUGGCAGGUGGUGUUGGGGAUGGUCCUGGAGGGGAUGGCCUGGGCAUACGCCGCCUCCAGCUGCUCAUAACCACCGAUCUGGUUGAAAGCUGGAGGGUGGGGCA", "RBNS enrichment (R)": 0.653}
{"Sequence": "UUGUCAGCACCUGGAAACAUCUGCCUUCUUAAAUGCAGUACAUUCUAAAGAGAGUGAGCAUGAGCUCACUCCAUCACUCGAUGAGAUAAUAUGAGAUUUCUACUUCGGAG", "RBNS enrichment (R)": 0.274}
{"Sequence": "GAAGAUAAUGAAAGCAAAUAUGUAACAAUACAAGUAGGGACUUUAGAGCUUCUAUUUGGGUUAAAACAUCCACUCACUUGGUUAGGAGCUAUGCCUCAGAAACUUCCUGG", "RBNS enrichment (R)": 0.425}
{"Sequence": "GGCCUCGCCUGGAGCCUGAACGGAGCCCUCCUCUCCCACAGGCCCAAGAUAUAACCCACCAGUGCCUUUUGUCUUCCUGUCAGCUCUGUCAAUCACGCCUGUCCUCUCAC", "RBNS enrichment (R)": 1.01}
{"Sequence": "GCAGACUGUGACCCUCGUGUUUGAGGAAAGCUGGUGUUUUCUGUGUUGGAACGCCACGGUUGCCAGACCAUUCCUUCCAUCUAACUGCGUAUUACACAAGGGCAUCGAGU", "RBNS enrichment (R)": 0.746}
{"Sequence": "UCCCGCACCCCUAGGUUUGUAUUCUGGUUCUACUGGCUUUUCUCAGUGGGACACCAAGGUAGAAAGGGAGUAAGAAUGGUUUUCCAGUGAGUUGAAUGUGCACACGUUUA", "RBNS enrichment (R)": 1.96}
{"Sequence": "CAAAUACACAGAGCCAGCUCUACCCACUCCUAAGAGCAGAGGCCAACUCUAAAGAAAGGUCUCAGGUUACACAGGCCCCCCCACUUAUGUUUUCAGGGGAUGCCAUUUAU", "RBNS enrichment (R)": 0.361}
{"data": "Set 2", "target": "Ras GTPase-activating protein-binding protein 1, RRM domain (G3BP1, Homo sapiens, UniProt Q13283)", "method": "RNA Bind-n-Seq", "molecule type": "RNA", "medium": "in vitro", "tested at": "1 µM", "setting": "whole 134-nt RNA, ends assumed", "added": "150 mM KCl", "relative to": "input library", "reading": "higher = stronger binding", "all sequences stand within": "GGGAGUUCUACAGUCCGACGAUC … UGGAAUUCUCGGGUGUCAAGG", "UniProt Q13283, sequence (whole entry, looked up)": "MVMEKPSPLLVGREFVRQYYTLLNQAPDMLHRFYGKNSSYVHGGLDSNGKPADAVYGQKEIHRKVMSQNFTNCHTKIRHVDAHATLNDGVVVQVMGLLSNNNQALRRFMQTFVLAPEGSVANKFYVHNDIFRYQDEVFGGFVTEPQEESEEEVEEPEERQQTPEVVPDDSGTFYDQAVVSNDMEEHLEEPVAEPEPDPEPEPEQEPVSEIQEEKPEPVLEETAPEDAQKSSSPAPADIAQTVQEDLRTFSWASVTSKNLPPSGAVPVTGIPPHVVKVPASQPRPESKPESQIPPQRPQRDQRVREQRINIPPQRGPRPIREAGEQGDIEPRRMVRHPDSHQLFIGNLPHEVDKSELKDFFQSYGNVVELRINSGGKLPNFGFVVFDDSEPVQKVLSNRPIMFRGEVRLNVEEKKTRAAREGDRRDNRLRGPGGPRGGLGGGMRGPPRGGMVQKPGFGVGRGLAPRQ"}
{"Sequence": "AAGUCCUGUGCUACACAUCGUAUGUACCGAAUCGGUUUUUUUGGAAAAAAAGGAGGAAAGUAUUAUGUUACGCCGUUCGGAUCUGCACUU", "log2 enrichment": -0.333}
{"Sequence": "GUCCUGUGCUACACAUCGUAUGUACCGAAUCGGGGAAAAAGGGAAAAAGGAAAAAGGGGAAAGUAUUAUGUUACGCCGUUCGGAUCUGCA", "log2 enrichment": 0.0911}
{"Sequence": "CUCAAGUCCUGUGCUACACAUCGUAUGUACCGAAUCGGGGCGGGGCGGGCGGGGAAAGUAUUAUGUUACGCCGUUCGGAUCUGCACUUCC", "log2 enrichment": 0.364}
{"Sequence": "GUCCUGUGCUACACAUCGUAUGUACCGAAUCGGGAAAGGGAAAAAGGGUUUUUUUGGGAAAGUAUUAUGUUACGCCGUUCGGAUCUGCAC", "log2 enrichment": 0.0906}
{"Sequence": "GCAGGAAGUAAAAACAAAUGGAAAUGCUUCGGAUAGUGGCAGGGUUGGGGGUUGCUAAGGAAAGGGUGGGAUGGGAGUGGGUAAAGAGUU", "log2 enrichment": 1.27}
{"Sequence": "UCAAGUCCUGUGCUACACAUCGUAUGUACCGAAUCGGAGGUUUGGUUUUUUUGGAAAGUAUUAUGUUACGCCGUUCGGAUCUGCACUUCC", "log2 enrichment": -0.249}
{"Sequence": "GUCCUGUGCUACACAUCGUAUGUACCGAAUCGGGAAAAAGGGUUUGGGAAAAAAAGGGAAAGUAUUAUGUUACGCCGUUCGGAUCUGCAC", "log2 enrichment": -0.105}
{"Sequence": "UCCUCAAGUCCUGUGCUACACAUCGUAUGUACCGAAUCGGGAGGAGGGGAGGAAAGUAUUAUGUUACGCCGUUCGGAUCUGCACUUCCAG", "log2 enrichment": -0.201}
{"Sequence": "AAGUCCUGUGCUACACAUCGUAUGUACCGAAUCGGUUUGGAAAAAGGUUUUUUUGGAAAGUAUUAUGUUACGCCGUUCGGAUCUGCACUU", "log2 enrichment": -0.271}
{"data": "Set 3", "target": "Sal-like protein 4, full length isoform B (SALL4, Homo sapiens, UniProt Q9UJQ4-2, residues 1-616)", "method": "universal PBM", "molecule type": "double-stranded DNA, one strand shown", "medium": "in vitro", "tested at": "not given", "setting": "8-mer, flanks averaged, mean of replicates", "reading": "higher = stronger binding", "Target sequence (chain)": "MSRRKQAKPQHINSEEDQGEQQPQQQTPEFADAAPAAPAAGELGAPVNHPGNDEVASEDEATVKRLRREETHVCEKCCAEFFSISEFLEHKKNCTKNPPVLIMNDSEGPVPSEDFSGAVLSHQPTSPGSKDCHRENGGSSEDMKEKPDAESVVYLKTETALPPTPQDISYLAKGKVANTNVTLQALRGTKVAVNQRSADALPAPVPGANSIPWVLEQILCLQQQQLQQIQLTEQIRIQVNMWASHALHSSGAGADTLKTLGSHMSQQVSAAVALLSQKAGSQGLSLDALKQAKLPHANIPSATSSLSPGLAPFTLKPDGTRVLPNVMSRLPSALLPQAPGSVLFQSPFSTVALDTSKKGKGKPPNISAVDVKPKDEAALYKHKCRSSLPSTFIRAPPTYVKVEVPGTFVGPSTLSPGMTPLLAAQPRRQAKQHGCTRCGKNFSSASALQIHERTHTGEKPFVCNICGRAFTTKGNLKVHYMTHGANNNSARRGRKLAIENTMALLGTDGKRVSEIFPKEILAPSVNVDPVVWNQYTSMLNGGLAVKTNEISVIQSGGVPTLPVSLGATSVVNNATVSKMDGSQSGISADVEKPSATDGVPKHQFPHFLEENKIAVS"}
{"Sequence": "CTGTACTC", "E-score": -0.0002}
{"Sequence": "AGCGGGAG", "E-score": -0.169}
{"Sequence": "AGTCTCTA", "E-score": 0.0254}
{"Sequence": "AATTGAGC", "E-score": 0.0516}
{"Sequence": "ATCATTTC", "E-score": 0.286}
{"Sequence": "CGTCAGGC", "E-score": -0.19}
{"Sequence": "GAATGAAC", "E-score": 0.112}
{"Sequence": "CGCCAAGC", "E-score": -0.215}
{"Sequence": "GAGCGATC", "E-score": -0.179}
{"Sequence": "AAGCCCGA", "E-score": -0.142}
{"Sequence": "ATGTTGAG", "E-score": 0.162}
{"Sequence": "AAAAACCT", "E-score": 0.229}
{"Sequence": "AAAGATTA", "E-score": 0.289}
{"Sequence": "AGTATGAT", "E-score": 0.271}
{"Sequence": "ATAAAAGC", "E-score": 0.236}
{"Sequence": "TAGGTCCA", "E-score": -0.0185}
{"Sequence": "ATCTTTGG", "E-score": 0.0314}
{"Sequence": "GGCACAGA", "E-score": -0.211}
{"Sequence": "ATCCTCGC", "E-score": -0.233}
{"Sequence": "CACGACAG", "E-score": -0.0621}
{"Sequence": "CGCAGCAC", "E-score": -0.235}
{"data": "Set 4", "target": "Histone acetyltransferase KAT6A, both winged helices, GST fusion (KAT6A, Homo sapiens, UniProt Q92794, residues 1-181)", "method": "protein binding microarray", "molecule type": "double-stranded DNA, one strand shown", "medium": "in vitro", "tested at": "not given", "setting": "8-mer, flanks averaged, mean of 2 arrays, mostly near background", "relative to": "not given", "reading": "higher = stronger binding", "Construct (chain)": "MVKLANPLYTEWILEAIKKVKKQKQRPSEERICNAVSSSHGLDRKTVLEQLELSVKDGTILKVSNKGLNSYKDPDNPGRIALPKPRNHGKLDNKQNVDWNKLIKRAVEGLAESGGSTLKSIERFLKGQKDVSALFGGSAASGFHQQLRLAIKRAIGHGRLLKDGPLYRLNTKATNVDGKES"}
{"Sequence": "AGGGGGAA", "E-score": -0.273}
{"Sequence": "GTAATAAA", "E-score": 0.0174}
{"Sequence": "GCTAACCC", "E-score": 0.0547}
{"Sequence": "ACCCTGAT", "E-score": -0.142}
{"Sequence": "GGCGGACC", "E-score": 0.223}
{"Sequence": "CACCTGCA", "E-score": -0.208}
{"Sequence": "AGGAGAAC", "E-score": 0.00915}
{"Sequence": "AACCGGTT", "E-score": 0.136}
{"Sequence": "ACGGGGAG", "E-score": 0.12}
{"Sequence": "AATCGGAA", "E-score": 0.0964}
{"Sequence": "ACGCGGAG", "E-score": 0.206}
{"Sequence": "AAGCACTC", "E-score": -0.0237}
{"Sequence": "AGCAGCTA", "E-score": -0.159}
{"Sequence": "AACGGAAA", "E-score": 0.259}
{"Sequence": "ATTTCCGC", "E-score": 0.206}
{"Sequence": "CACCCGCG", "E-score": 0.336}
{"Sequence": "CTCCTGAA", "E-score": -0.0143}
{"Sequence": "CGCGACAG", "E-score": 0.153}
{"Sequence": "AGTGGAGC", "E-score": -0.0793}
{"Sequence": "AAGCTAAA", "E-score": -0.116}
{"Sequence": "GACGTGGC", "E-score": -0.0331}
{"Sequence": "GTATTGGA", "E-score": -0.0493}
{"Sequence": "GCATCTAC", "E-score": 0.00247}
{"Sequence": "AGTGGGAG", "E-score": -0.261}
{"Sequence": "ATCCCAAA", "E-score": -0.168}
{"data": "Set 5", "target": "POU domain, class 5, transcription factor 1, POU domain (Pou5f1, Mus musculus, UniProt P20263, residues 131-289)", "method": "Spec-seq", "molecule type": "double-stranded DNA, one strand shown", "medium": "in vitro", "tested at": "not given", "setting": "whole probe, mean of replicates", "relative to": "not given", "reading": "lower = stronger binding", "all sequences stand within": "GAGTCGTCTCGTCAGCAC … CCGTAGAGCACTCAGGTC", "UniProt P20263, sequence (131-289, looked up)": "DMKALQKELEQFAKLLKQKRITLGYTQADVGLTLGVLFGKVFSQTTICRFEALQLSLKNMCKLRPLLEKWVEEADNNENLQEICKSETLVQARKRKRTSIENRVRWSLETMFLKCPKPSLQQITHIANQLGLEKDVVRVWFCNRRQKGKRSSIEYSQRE"}
{"Sequence": "TGGGTAAT", "relative binding energy": "0.846 ln ratio"}
{"Sequence": "ATATCCAT", "relative binding energy": "-0.717 ln ratio"}
{"Sequence": "GAGATAAT", "relative binding energy": "0.457 ln ratio"}
{"Sequence": "ATGGTGAT", "relative binding energy": "-0.291 ln ratio"}
{"Sequence": "TGGTTAAT", "relative binding energy": "0.579 ln ratio"}
{"Sequence": "GCATTAAT", "relative binding energy": "-0.713 ln ratio"}
{"Sequence": "CGTGTAAT", "relative binding energy": "0.867 ln ratio"}
{"Sequence": "ATAATCAT", "relative binding energy": "-1.06 ln ratio"}
{"Sequence": "ATACCAAT", "relative binding energy": "0.184 ln ratio"}
{"Sequence": "ATGCGCAT", "relative binding energy": "0.0743 ln ratio"}
{"Sequence": "ATGCTTCC", "relative binding energy": "0.666 ln ratio"}
{"Sequence": "ATGCTTCA", "relative binding energy": "0.621 ln ratio"}
{"Sequence": "ATCACAAT", "relative binding energy": "0.289 ln ratio"}
{"Sequence": "ATGCCGGG", "relative binding energy": "0.828 ln ratio"}
{"Sequence": "GACCTAAT", "relative binding energy": "0.808 ln ratio"}
{"Sequence": "ATTCCGAT", "relative binding energy": "0.334 ln ratio"}
{"Sequence": "ACTGTAAT", "relative binding energy": "0.669 ln ratio"}
{"Sequence": "ATTTAAAT", "relative binding energy": "-1.29 ln ratio"}
{"note": "Excerpt of the above (set 3):"}
{"Sequence": "CGTCAGGC", "E-score": -0.19}
{"Sequence": "GAATGAAC", "E-score": 0.112}
{"Sequence": "CGCCAAGC", "E-score": -0.215}
{"Sequence": "GAGCGATC", "E-score": -0.179}
{"Sequence": "AAGCCCGA", "E-score": -0.142}
{"Sequence": "ATGTTGAG", "E-score": 0.162}
{"Sequence": "AAAAACCT", "E-score": 0.229}
{"Sequence": "AAAGATTA", "E-score": 0.289}
